Experimental data collected from several papers.
Every numbered part comes from another study and shows a few of its results, in no order. Substitutions count along the parent as printed.

Block 1 — method: RNAcompete; form: RNA; medium: in vitro; tested at: 20 nM; notes: 7-mer, probes averaged, single round; baseline: mean of 7-mers; reading: higher = stronger binding
Target: PABPC1L2, full length, GST fusion (mouse, UniProt A0ABA7IW68)
Construct (chain): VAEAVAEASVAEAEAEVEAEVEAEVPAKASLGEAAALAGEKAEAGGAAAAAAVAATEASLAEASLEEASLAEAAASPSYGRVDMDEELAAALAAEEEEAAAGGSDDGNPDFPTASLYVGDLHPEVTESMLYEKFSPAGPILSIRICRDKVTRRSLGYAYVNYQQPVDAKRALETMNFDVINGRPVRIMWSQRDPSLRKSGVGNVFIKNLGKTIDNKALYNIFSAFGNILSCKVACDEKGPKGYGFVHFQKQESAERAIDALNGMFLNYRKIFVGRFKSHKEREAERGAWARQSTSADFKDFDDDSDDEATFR
Strand | 7-mer Z-score
CUGUUGA | -0.195
AUCGAGU | -0.012
GAUAUCA | -0.179
CCACGUC | -0.369
CGUCCGU | -0.267
CAUCGUU | -0.402
UAAACGA | 0.628
CACGGUC | -0.126
UCCAGGA | -0.117
UUCGAUA | -0.179
UUGUGGU | -0.412
CCCCUAG | -0.436
CCUGUGU | -0.345
CACCUAG | -0.233
GCUCGAA | -0.104
UCCGUGG | -0.184
UCCCUUG | -0.374
CUAAACU | 0.0551
UUAGGUU | -0.179
GUCUACA | -0.229
AUUAAUG | -0.0808
GUCAGAG | -0.124
CAAUUGA | -0.122
ACCUACU | -0.204
UACGUGA | -0.139

Block 2 — method: DHFR PCA, deep sequencing; medium: yeast; together with: (+)-ABA 0.0091 µM; baseline: wild-type fitted maximum; reading: higher = stronger binding
Target: ABI1, truncated, D143A, DHFR fusion (Arabidopsis thaliana)
Notes: methotrexate growth selection, single substitutions
Starting sequence: PYL1, truncated, DHFR fusion (Arabidopsis thaliana); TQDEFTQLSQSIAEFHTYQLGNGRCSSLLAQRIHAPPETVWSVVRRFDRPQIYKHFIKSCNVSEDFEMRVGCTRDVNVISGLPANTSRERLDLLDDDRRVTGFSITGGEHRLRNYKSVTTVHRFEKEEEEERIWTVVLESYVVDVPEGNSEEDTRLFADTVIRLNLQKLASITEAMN
Substitution | relative binding score [%]
Q2H | 33.8
D48K | 0.384
T119K | -2.16
R113W | -5.59
P50L | -7
S27T | 4.11
N61G | 1.58
H55N | 14.9
L8V | -2.56
S11R | -1.14
F124K | -2.41
L94S | 1.12
G108V | -2.74
D92G | 2.53
S104Y | -0.515
F103L | 0.605

Block 3 — method: Sort-seq; item: YFP reporter; medium: E. coli; notes: PhoQ-PhoP variant library; together with: 10 µM Mg2+; baseline: high Mg2+ state; reading: higher = stronger signaling
Substance: PhoQ, residues 284 288 289 292 302 303 TLSLKA
target | fold induction
PhoP, residues 12 14 15 18 19 STHWV (Escherichia coli, UniProt P23836) | 13.5
PhoP, residues 12 14 15 18 19 QYCSL (Escherichia coli, UniProt P23836) | 3.21
PhoP, residues 12 14 15 18 19 SHWTV (Escherichia coli, UniProt P23836) | 18

Block 4 — target: JUND, bZIP domain (human); method: DHFR protein complementation; medium: yeast; baseline: wild-type JUN-FOS pair; reading: higher = stronger binding
Notes: single substitutions, most at no-binding floor
Starting sequence: JUN, bZIP domain (human); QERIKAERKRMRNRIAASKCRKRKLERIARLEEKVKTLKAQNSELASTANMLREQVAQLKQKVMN; partner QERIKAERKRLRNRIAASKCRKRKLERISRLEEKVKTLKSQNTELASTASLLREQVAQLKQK
Substitution | binding fitness [natural log]
A46S | -0.755
I28A | -1.13
V56L | -0.551
R30F | -0.667
A40T | -0.665
Q55C | -0.915
S43M | -0.62
K39C | -1
V35F | -1.15
N42H | -0.937
S43V | -0.748
R53S | -1.13
S43R | -0.499
E54Q | -0.944
S47F | -0.718
K34M | -0.371
A29R | -0.576

Block 5 — target: CCNB2, cyclin fold, Cln2 fusion (human); method: yeast growth competition, sequencing; medium: yeast; notes: weak parent motif; baseline: not given; reading: higher = stronger binding
Starting sequence: CABLES2 docking peptide (human); ICAKRSLCAAFSV
Substitution | normalised enrichment score
C8A | 0.382
V13A | 0.238
R5A | -0.089
S6A | 0.414
I1A | 0.0327

Block 6 — method: protein-binding microarray; form: double-stranded DNA, one strand shown; medium: in vitro; tested at: 250 nM; notes: 60-bp whole probe; together with: salmon DNA 0.4 mg/ml; baseline: random background probes; reading: higher = stronger binding; all sequences stand within: GCCTAGCAC … GTCTTGATTCGCTTGACGCTGCTG
Target: Interferon regulatory factor 7, full length, phosphomimetic (IRF7, Homo sapiens, UniProt Q92985, residues 1-503, S101K/S471D/S472D/S475D/S476D/S477D/S483D/S484D/S487D)
Residues (chain): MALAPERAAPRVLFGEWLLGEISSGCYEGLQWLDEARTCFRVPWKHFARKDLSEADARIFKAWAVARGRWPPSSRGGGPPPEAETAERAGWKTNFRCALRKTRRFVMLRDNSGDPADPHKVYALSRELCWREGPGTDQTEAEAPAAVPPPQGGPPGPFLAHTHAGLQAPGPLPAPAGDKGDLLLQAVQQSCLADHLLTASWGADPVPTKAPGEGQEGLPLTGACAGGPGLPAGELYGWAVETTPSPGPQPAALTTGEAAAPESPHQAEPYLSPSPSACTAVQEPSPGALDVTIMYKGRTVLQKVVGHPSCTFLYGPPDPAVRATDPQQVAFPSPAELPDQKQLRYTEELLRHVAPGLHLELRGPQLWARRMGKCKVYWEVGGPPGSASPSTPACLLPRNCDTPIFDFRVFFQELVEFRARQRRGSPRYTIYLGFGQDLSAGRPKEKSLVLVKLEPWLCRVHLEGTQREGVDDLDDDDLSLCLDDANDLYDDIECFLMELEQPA
Strand | log fluorescence [z-score]
GACGGTATCGGGACTGGGGAGGTGCTA | -0.22
GGCGGTATCGGGTATCGGGACGTGCTA | 0.564
GACGGATTCCTTCTCCTGACGTGCTAG | 0.386
GACAAACTGAGTTTCGAGACGTGCTAG | 4.22
GACGGTTTCGGTCTCGGGATGTGCTAG | 7.92
GTCTCTATCAAAAATACAAAAGTGCTA | 1.34
GACGAACTGGGGTTTCGAAACGTGCTA | 3.59
TTAGAGATCAGACTGGATTAGTGCTAG | -0.668
TTAGAACTGGGCTATCGATTAGTGCTA | -0.64
TTAGGTCTCGGTTTCTGTTAGTGCTAG | 8.54
TTAGATCTCAGTATCCATTAGTGCTAG | 0.157
GACGGACTGGGGACTGGGCACGTGCTA | -0.946
GGATTGCAACCCCTCAAAAAGTGCTAG | 1.09
TTAGAACTGAGTTTCGTTTAGTGCTAG | 8.29
CTCTGTCTGGGATGTAATTCCGTGCTA | -0.0232
TGAGGTTTCCTTTTCCTTTAGTGCTAG | 6.74
TCAGTTTTGCTAAGTCAAACTGTGCTA | 1.01
TTAGGTTTCGGTCTCGGATAGTGCTAG | 8.47
GACGATTTCCTTTCCCTGACGTGCTAG | 1.43

Block 7 — target: CRIPT, C-terminal peptide; method: DHFR complementation, deep sequencing; medium: yeast; baseline: wild type; reading: higher = weaker binding
Notes: single substitutions, model-inferred values
Starting sequence: ERBIN, PDZ domain 1 (human); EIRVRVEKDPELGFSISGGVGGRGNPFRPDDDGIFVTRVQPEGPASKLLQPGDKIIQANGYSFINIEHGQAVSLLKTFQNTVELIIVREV; partner TKNYKQTSV
Substitution | binding free energy change
D32E | 0.0679 kcal/mol
G69M | -0.0828 kcal/mol
S46F | -0.0327 kcal/mol
I55L | -0.0947 kcal/mol
V20I | 0.0192 kcal/mol
G19Q | 1.25 kcal/mol
V4L | 0.0894 kcal/mol
D9C | -0.105 kcal/mol
V36Q | 0.947 kcal/mol
R28A | -0.0108 kcal/mol
I85Q | 0.17 kcal/mol
G13P | 1.56 kcal/mol
N80A | -0.00909 kcal/mol
L48V | 0.129 kcal/mol
F27Y | 0.0405 kcal/mol
V87N | -0.00595 kcal/mol
E1Y | 0.236 kcal/mol

Block 8 — method: RNA Bind-n-Seq; form: RNA; medium: in vitro; tested at: 200 nM; notes: whole 134-nt RNA, ends assumed; together with: 150 mM KCl; baseline: input library; reading: higher = stronger binding
Target: Fragile X messenger ribonucleoprotein 1, C-terminal low-complexity region (Fmr1, Mus musculus, UniProt P35922)
All sequences stand within: GGGAGUUCUACAGUCCGACGAUC … UGGAAUUCUCGGGUGUCAAGG
Strand | log2 enrichment
UUUUAGGAAGCUGCAGUAAAGGAAGAUGAAGAAGAAGUUUCAGAUAAGGGCAGUGAUUCUGAAGAAGAAGAAACCAAUAGAGAUUCCCAA | -0.762
CAAGUCCUGUGCUACACAUCGUAUGUACCGAAUCGGGAAAGGGAAAGGGGAAAGGAAAGUAUUAUGUUACGCCGUUCGGAUCUGCACUUC | -0.168
UCAAGUCCUGUGCUACACAUCGUAUGUACCGAAUCGGGAAAGGAAAGGGAAAGGAAAGUAUUAUGUUACGCCGUUCGGAUCUGCACUUCC | -0.437
UGGGAGGUGGAUUUUGUUUAUUUUUUUAGCUCAUUUCCAGGGGUGGGAAUUUUUUUUUAAUACGUGUCAUGAAUAAAGUUGUUUUUGAAA | 0.252
UAUUGAUGCAUUUGACCCUACACUGGCUCCAGCCACAGGAACUCCUGUUGUCGGGGGACUAACCUAUCGAGAAGGCAUGUAUAUUGCUGA | -0.886
CUCAAGUCCUGUGCUACACAUCGUAUGUACCGAAUCGGUUUGGAGGUUUUUGGAAAGUAUUAUGUUACGCCGUUCGGAUCUGCACUUCCA | -0.0854
UCAAGUCCUGUGCUACACAUCGUAUGUACCGAAUCGGUUUGGUUUGGGGUUUGGAAAGUAUUAUGUUACGCCGUUCGGAUCUGCACUUCC | -0.402
UGGGAGGUGGAUUUUGUUUAUUUUUUUAGCUCAUUUCCAGGGGUGGGAAUUUUUUGUUAAUAUGUGUCAUGAAUAAAGUUGUUUUUGAAA | 0.284
UCCUGUGCUACACAUCGUAUGUACCGAAUCAAACCCCCCCAAACCCCCCCAAAUUUAAAAAAGUAUUAUGUUACGCCGUUCGGAUCUGCA | 0.0359
GUCCUGUGCUACACAUCGUAUGUACCGAAUCGGAAAAAAAGGUUUUUGGUUUUUUUGGAAAGUAUUAUGUUACGCCGUUCGGAUCUGCAC | -1.22
GCAGGAAGUAAAAACAAAUGGAAAUGCUUCGGAUAGUGGCAGGGGUGGGGGUUGCUAAGAAAAGGGUGGGAUGGGAGUGGGUAAAGAGUU | 0.0252
AGUCCUGUGCUACACAUCGUAUGUACCGAAUCGGGGCCCCGGGGCCCCGGGCCCCGGAAAGUAUUAUGUUACGCCGUUCGGAUCUGCACU | 0.736
AGUCCUGUGCUACACAUCGUAUGUACCGAAUCGGAAAAAGGGAAAAAGGGGAAAAAGGAAAGUAUUAUGUUACGCCGUUCGGAUCUGCAC | -0.415
GCAGGAAGUAAAAUCAAAUGGAAAUGCUUCGGAUAGUGGCAGGGGUGGGGGUUGCUAAGGAAAGGGUGGGAUGGGAGUGGGUAAAGAGUU | 0.332

A few entries again (block 1):
Strand | 7-mer Z-score
CACGGUC | -0.126
GAUAUCA | -0.179
CCUGUGU | -0.345
CCACGUC | -0.369
UAAACGA | 0.628
CAAUUGA | -0.122
AUCGAGU | -0.012
ACCUACU | -0.204
CCCCUAG | -0.436
CACCUAG | -0.233
UCCCUUG | -0.374
UUAGGUU | -0.179
UUGUGGU | -0.412
GUCUACA | -0.229
